# Measurements collected from several papers.
# Compare with care: the assays were run in different laboratories. Numbers after ± are the reported error.
# U2AF2: U2AF2 148-342 (Homo sapiens, UniProt P26368)
# Chain of UniProt P26368 (whole entry, looked up): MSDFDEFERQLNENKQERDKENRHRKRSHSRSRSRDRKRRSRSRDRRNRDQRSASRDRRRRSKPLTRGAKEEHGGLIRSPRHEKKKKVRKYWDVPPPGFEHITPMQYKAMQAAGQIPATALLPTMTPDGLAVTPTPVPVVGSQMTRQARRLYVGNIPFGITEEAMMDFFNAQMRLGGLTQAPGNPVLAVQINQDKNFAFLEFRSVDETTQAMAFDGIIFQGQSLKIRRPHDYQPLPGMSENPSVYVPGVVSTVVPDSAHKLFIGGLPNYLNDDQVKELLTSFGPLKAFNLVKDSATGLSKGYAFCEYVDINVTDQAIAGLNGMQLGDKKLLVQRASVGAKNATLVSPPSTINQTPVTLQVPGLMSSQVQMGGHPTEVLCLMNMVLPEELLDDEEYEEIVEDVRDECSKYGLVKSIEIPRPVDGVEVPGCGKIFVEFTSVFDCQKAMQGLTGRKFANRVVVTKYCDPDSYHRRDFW
# B1: mortalin (human); sequence looked up; chain ASEAIKGAVVGIDLGTTNSCVAVMEGKQAKVLENAEGARTTPSVVAFTADGERLVGMPAKRQAVTNPNNTFYATKRLIGRRYDDPEVQKDIKNVPFKIVRASNGDAWVEAHGKLYSPSQIGAFVLMKMKETAENYLGHTAKNAVITVPAYFNDSQRQATKDAGQISGLNVLRVINEPTAAALAYGLDKSEDKVIAVYDLGGGTFDISILEIQKGVFEVKSTNGDTFLGGEDFDQALLRHIVKEFKRETGVDLTKDNMALQRVREAAEKAKCELSSSVQTDINLPYLTMDSSGPKHLNMKLTRAQFEGIVTDLIRRTIAPCQKAMQDAEVSKSDIGEVILVGGMTRMPKVQQTVQDLFGRAPSKAVNPDEAVAIGAAIQGGVLAGDVTDVLLLDVTPLSLGIETLGGVFTKLINRNTTIPTKKSQVFSTAADGQTQVEIKVCQGEREMAGDNKLLGQFTLIGIPPAPRGVPQIEVTFDIDANGIVHVSAKDKGTGREQQIVIQSSGGLSKDDIENMVKNAEKYAEEDRRKKERVEAVNMAEGIIHDTETKMEEFKDQLPADECNKLKEEISKMRELLARKDSETGENIRQAASSLQQASLKLFEMAYKKMASEREGSGSSGTGEQKEDQKEEKQ
# B2: human EEF1D; sequence looked up; chain ATNFLAHEKIWFDKFKYDDAERRFYEQMNGPVAGASRQENGASVILRDIARARENIQKSLAGSSGPGASSGTSGDHGELVVRIASLEVENQSLRGVVQELQQAISKLEARLNVLEKSSPGHRATAPQTQHVSPMRQVEPPAKKPATPAEDDEDDDIDLFGSDNEEEDKEAAQLREERLRQYAEKKAKKPALVAKSSILLDVKPWDDETDMAQLEACVRSIQLDGLVWGASKLVPVGYGIRKLQIQCVVEDDKVGTDLLEEEITKFEEHVQSVDIAAFNKI
Molecule,target or system,assay,test system,setting,scale,quantity,result
UAUACUUUU (ssRNA),U2AF2,sequencing of bound RNA,RNA,motif only,,Kd,11 µM
verteporfin,BT-12,"cell viability, MTT",,"10 µM, 72 h",,inhibition,92.7%
B1 (mortalin),CYB5R4 knockout human cells,"PP4 interaction, 3xFLAG-PP4C IP-MS",,concentration not given,relative to: CYB5R4 KO over parental,log2 fold change,0.32
QSDPITSSM,Jurkat expressing engineered TCR,"NFAT-eGFP reporter, fluorescence microscopy",peptide,"concentration not given, HLA-A*01:01 on EL4 cells",,GFP-positive cells,0.602%
human RGPD5,CYB5R4 knockout human cells,"PP4 interaction, 3xFLAG-PP4C IP-MS",,concentration not given,relative to: CYB5R4 KO over parental,log2 fold change,-0.94
human ME2 E59N,,"enzyme activity, NADH absorbance",,"without fumarate, with: L-malate varied",,Hill coefficient,1 ± 0.07
colistin,Acinetobacter baumannii,broth microdilution,clinical isolate RKI-No_231/15,,,MIC,≤ 0.5 µg/mL
epoetin alfa,UT7/EPO,"LC-MS/MS phosphoproteomics (trypsin), measured: JAK2 phospho-Tyr1007,1008",,"10 U/mL, 15 min",relative to: vehicle,phosphorylation,5.5 fold
QADPITTEY,Jurkat expressing engineered TCR,"NFAT-eGFP reporter, fluorescence microscopy",peptide,"concentration not given, HLA-A*01:01 on EL4 cells",,GFP-positive cells,0.542%
lawsone,HuCC-A1,MTT,,,relative to: MRC5 IC50 over HuCC-A1 IC50,selectivity index,3.12
evodiamine,HEL,cell proliferation,,,,IC50,1.61 ± 0.16 µM
B2 (human EEF1D),CYB5R4 knockout human cells,"PP4 interaction, 3xFLAG-PP4C IP-MS",,concentration not given,relative to: CYB5R4 KO over parental,log2 fold change,0.8
HQDPIGLKY,Jurkat expressing engineered TCR,"NFAT-eGFP reporter, fluorescence microscopy",peptide,"concentration not given, HLA-A*01:01 on EL4 cells",,GFP-positive cells,0.489%
Peginesatide,UT7/EPO,"tyrosine phosphorylation, LC-MS/MS phosphoproteomics, trypsin, measured: PLCG1 tyrosine 783",,"10 nM, 15 min, with: 10 U/mL EPO",relative to: vehicle,phosphorylation level,12.6 fold
YLEPIYLSF,Jurkat expressing engineered TCR,"NFAT-eGFP reporter, fluorescence microscopy",peptide,"concentration not given, HLA-A*01:01 on EL4 cells",,GFP-positive cells,0.446%
human RGPD8,CYB5R4 knockout human cells,"PP6 interaction, 3xFLAG-PP6C IP-MS",,concentration not given,relative to: CYB5R4 KO over parental,log2 fold change,0.81
GUUUUCAUU (ssRNA),U2AF2,sequencing of bound RNA,RNA,motif only,,Kd,11.3 µM
PTBP3 (human),CYB5R4 knockout human cells,"PP4 interaction, 3xFLAG-PP4C IP-MS",,concentration not given,relative to: CYB5R4 KO over parental,log2 fold change,-1.25
LSDIIPLDY,Jurkat expressing engineered TCR,"NFAT-eGFP reporter, fluorescence microscopy",peptide,"concentration not given, HLA-A*01:01 on EL4 cells",,GFP-positive cells,0.45%
MTVCNASQRQAHAQATAVSL,LNCaP,phage binding,peptide,,relative to: targeting over control phage,selectivity ratio,0.13 ± 0.06

# Excerpt of the above:
Molecule,target or system,assay,test system,setting,scale,quantity,result
B2 (human EEF1D),CYB5R4 knockout human cells,"PP4 interaction, 3xFLAG-PP4C IP-MS",,concentration not given,relative to: CYB5R4 KO over parental,log2 fold change,0.8
verteporfin,BT-12,"cell viability, MTT",,"10 µM, 72 h",,inhibition,92.7%
QADPITTEY,Jurkat expressing engineered TCR,"NFAT-eGFP reporter, fluorescence microscopy",peptide,"concentration not given, HLA-A*01:01 on EL4 cells",,GFP-positive cells,0.542%
